Measured values gathered from unrelated publications.
Each line is one published result; not all experiments were run side by side. ± gives the spread as reported.
Target: Voltage-gated inwardly rectifying potassium channel KCNH2 (KCNH2, Homo sapiens, UniProt Q12809)
Chain of UniProt Q12809 (whole entry, looked up): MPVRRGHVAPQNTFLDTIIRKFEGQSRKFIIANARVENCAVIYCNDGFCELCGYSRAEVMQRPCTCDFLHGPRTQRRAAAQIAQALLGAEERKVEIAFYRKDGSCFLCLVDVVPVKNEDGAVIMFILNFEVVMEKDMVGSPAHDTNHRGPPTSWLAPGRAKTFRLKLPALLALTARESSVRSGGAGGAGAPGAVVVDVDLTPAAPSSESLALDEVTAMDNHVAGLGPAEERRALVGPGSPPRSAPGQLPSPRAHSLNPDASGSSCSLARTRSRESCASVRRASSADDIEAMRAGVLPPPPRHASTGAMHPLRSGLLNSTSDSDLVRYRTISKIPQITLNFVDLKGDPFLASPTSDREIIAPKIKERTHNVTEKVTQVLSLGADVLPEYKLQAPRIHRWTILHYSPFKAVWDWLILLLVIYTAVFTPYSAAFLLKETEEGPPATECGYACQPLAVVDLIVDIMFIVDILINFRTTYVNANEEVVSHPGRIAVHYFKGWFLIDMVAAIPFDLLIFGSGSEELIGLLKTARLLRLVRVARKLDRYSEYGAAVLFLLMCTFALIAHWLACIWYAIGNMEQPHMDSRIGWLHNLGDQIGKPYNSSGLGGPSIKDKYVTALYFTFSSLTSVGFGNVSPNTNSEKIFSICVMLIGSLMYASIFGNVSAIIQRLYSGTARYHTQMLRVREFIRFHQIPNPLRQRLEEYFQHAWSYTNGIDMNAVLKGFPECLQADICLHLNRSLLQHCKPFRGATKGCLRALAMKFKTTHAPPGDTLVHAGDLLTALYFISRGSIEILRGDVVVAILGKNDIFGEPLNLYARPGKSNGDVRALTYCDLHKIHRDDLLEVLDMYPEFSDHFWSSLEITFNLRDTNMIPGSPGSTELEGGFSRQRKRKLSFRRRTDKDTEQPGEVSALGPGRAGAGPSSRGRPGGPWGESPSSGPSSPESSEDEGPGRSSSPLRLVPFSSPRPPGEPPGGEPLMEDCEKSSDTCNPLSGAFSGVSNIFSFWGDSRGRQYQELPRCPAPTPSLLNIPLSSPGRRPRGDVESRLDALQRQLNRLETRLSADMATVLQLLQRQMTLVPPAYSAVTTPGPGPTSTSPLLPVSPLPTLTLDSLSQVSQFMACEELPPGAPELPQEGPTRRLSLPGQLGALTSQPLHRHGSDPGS

SMILES | test | system | setting | measurement | result
C[C@@H](OC(=O)c1cccc(S(=O)(=O)Nc2ccc3c(c2)OCO3)c1)C(=O)c1c[nH]c2ccccc12 | ion current, inhibitor |  |  | IC50 | > 30 µM
Cc1cccc(C)c1NC(=O)CC(C)NCc1cccc2ccccc12 (centres unmarked) | potassium current, patch clamp | tsA201 transfected with KCNH2 | 0.2% DMSO | concentration of maximal effect | 100 µM
CCCOc1ccc(OC)c(F)c1C(=O)c1ccc(C(=O)N[C@@H]2CNC[C@H]2NC(=O)c2ccc3[nH]ncc3c2)cc1 | hERG tail current, inhibitor |  | 5 min | IC50 | 4.4 µM
CCC(=O)N(C)c1ccc(Cl)c(Cl)c1 | ion current, inhibitor, patch clamp | HEK293 | 50 µM | inhibition | 14%
CC(=O)N(c1ccccc1)c1nc(COC(=O)[C@H]2CC(=O)N(c3cccc4ccccc34)C2)cs1 | ion current, inhibitor |  |  | IC50 | > 30 µM
CCN1/C(=C/C=C2\CCCC(/C=C/C3=[N+](CC)c4ccccc4C3(C)C)=C2NCCCCCCCCN2CCC(Nc3nc4ccccc4n3Cc3ccc(F)cc3)CC2)C(C)(C)c2ccccc21 | ligand displacement, radioligand | HEK293 | 80 min, cell membranes | IC50 | 0.00362 µM
Cc1cc(O)cc(O)c1C(=O)c1c2c3c(c(O)cc(C)c3oc1=O)C(=O)c1c(O)cc(O)cc1-2 | potassium current, inhibitor | HEK293 | 2.5 µM, pH 7.4 | inhibition | 2 ± 2.3%
O=C(O)c1ccc(/C=C2\SC(=S)N(Cc3cccc(C(F)(F)F)c3)C2=O)cc1 | ion current, patch clamp | CHO | 10 µM | activity | inactive
